Measured values gathered from unrelated publications.
Compare with care: the assays were run in different laboratories. Numbers after ± are the reported error.

CC(C)C[C@@H]1NC(=O)[C@H](CC(C)C)NC(=O)[C@H](Cc2c[nH]c3ccccc23)NC(=O)[C@H](CO)NC(=O)[C@H](Cc2c[nH]c3ccccc23)NC(=O)[C@@H]2CCCN2C(=O)[C@H](CC(C)C)NC(=O)[C@H](Cc2c[nH]cn2)NC(=O)[C@@H]2CCCN2C(=O)[C@H](CC(N)=O)NC(=O)[C@H](C)NC(=O)[C@H](Cc2ccc(O)cc2)NC(=O)[C@H](CS)NC(=O)[C@H](CCCCNC(=O)CN2CCN(CC(=O)O)CCN(CC(=O)O)CCN(CC(=O)O)CC2)NC1=O [lutetium-177 labelled] — tissue uptake (Balb/c mouse, female, 4T1 tumour, kidney; intravenous, 3.7 MBq, 24 h): 2.17 %ID
Cc1ccccc1NC(=O)Nc1ccc(CC(=O)N[C@@H](CCCCNC(=O)/C=C/c2cccnc2)C(=O)N[C@@H](CCCC(=O)O)C(=O)NC2(C(=O)NCCOCCOCCOCCOCC(=O)N[C@@H](CCCCNC(=S)Nc3ccc(CCCN(CCN4CCN(CP(=O)(O)O)CCN(CP(=O)(O)O)CC4)CC(=O)O)cc3)C(N)=O)CCCCC2)cc1 [gallium-68 labelled] — free gallium-68 (radio-HPLC; C57BL/6 mice, urine; 30 min post-injection): 4.8%
CC(C)C[C@H](NC(=O)[C@H](C)NC(=O)[C@@H](NC(=O)[C@H](C)NC(=O)[C@H](CC(C)C)NC(=O)[C@H](CC(=O)O)NC(=O)[C@@H]1CCCN1C(=O)[C@@H]1CCCN1C(=O)[C@H](CC(=O)O)NC(=O)[C@H](Cc1ccccc1)NC(=O)[C@H](Cc1c[nH]c2ccccc12)NC(=O)[C@H](CC(C)C)NC(=O)[C@H](C)NC(=O)[C@@H](NC(=O)[C@H](C)NC(=O)[C@H](CC(C)C)NC(=O)[C@H](CC(=O)O)NC(=O)COCC(=O)NCCCOCCOCCOCCCNC(=O)COCC(=O)NCCCOCCOCCOCCCNC(=O)CCC(C(=O)O)N1CCN(CC(=O)O)CCN(CC(=O)O)CC1)C(C)C)C(C)C)C(=O)N[C@@H](Cc1c[nH]c2ccccc12)C(=O)N[C@@H](Cc1ccccc1)C(=O)N[C@@H](CC(=O)O)C(N)=O (some centres unmarked) [gallium-68 labelled] — intact parent in plasma (radio-HPLC; healthy C57BL/6 mice, plasma; intravenous, 4 MBq, 60 min, ex vivo analysis): 41 ± 14%
O=C(O)C[C@H](NC(=O)[C@H](CC(=O)O)NC(=O)[C@H](CC(=O)O)NC(=O)[C@H](CC(=O)O)NC(=O)[C@H](CC(=O)O)NC(=O)[C@H](CC(=O)O)NC(=O)[C@H](CC(=O)O)NC(=O)[C@H](CC(=O)O)NC(=O)[C@H](CC(=O)O)NC(=O)[C@H](CC(=O)O)NC(=O)[C@H](CC(=O)O)NC(=O)[C@H](CCCCNC(=O)c1ccc(C(=O)NCCOCCOB2BBBBBB3BBBB3B2)cc1)NC(=O)CN1CCN(CC(=O)O)CCN(CC(=O)O)CCN(CC(=O)O)CC1)C(=O)O [gallium-67 labelled] — tissue uptake (ddY male mice, kidney; intravenous, 37 kBq, 1 h): 6.83 %ID/g
CCCCCCCCCC(=O)N[C@@H](Cc1c[nH]c2ccccc12)C(=O)N[C@H](CC(N)=O)C(=O)N[C@@H](CC(=O)O)C(=O)N[C@@H]1C(=O)NCC(=O)N[C@@H](CCCNC(=O)CCC(=O)N2Cc3ccccc3-c3c(nnn3CCC[C@H](NC(=O)CCCCC[N+]3=C(C=CC4=CC(=CC=C5N(C)c6ccccc6C5(C)C)CCC4)C(C)(C)c4ccccc43)C(=O)NCCCCNC(=O)OC(C)(C)C)-c3ccccc32)C(=O)N[C@@H](CC(=O)O)C(=O)N[C@H](C)C(=O)N[C@@H](CC(=O)O)C(=O)NCC(=O)N[C@H](CO)C(=O)N[C@@H]([C@H](C)CC(=O)O)C(=O)N[C@@H](CC(=O)c2ccccc2N)C(=O)O[C@@H]1C — fraction unbound (rapid equilibrium dialysis; human plasma; 1 µM, 2 h, 37 °C): 0.084
C[C@@H](O)[C@@H](CO)NC(=O)[C@@H](CCCNC(=N)N)NC(=O)[C@@H]1CCCN1C(=O)[C@@H]1CSSC[C@H](NC(=O)[C@H](Cc2ccccc2)NC(=O)CN2CCN(CC(=O)O)CCN(CC(=O)O)CCN(CC(=O)O)CC2)C(=O)N[C@@H](Cc2ccc(O)cc2)C(=O)N[C@@H](Cc2ccccc2)C(=O)N[C@@H](CCC(N)=O)C(=O)N[C@@H](CC(N)=O)C(=O)N1 [gallium-68 labelled] — tissue uptake (Wistar rat, blood; intravenous, 8 MBq, 120 min, group mean): 0.13 %ID/g
C[C@@H](O)[C@H](NC(=O)[C@@H]1CSSC[C@H](NC(=O)[C@@H](Cc2ccccc2)NC(=O)CN2CCN(CC(=O)[O-])CCN(CC(=O)[O-])CCN(CC(=O)[O-])CC2)C(=O)N[C@@H](Cc2ccc(O)cc2)C(=O)N[C@H](Cc2c[nH]c3ccccc23)C(=O)N[C@@H](CCCCN)C(=O)N[C@@H]([C@@H](C)O)C(=O)N1)C(=O)O.[177Lu+3] — uptake (MEC1 treated with 200 µM zebularine; gamma counter; serum-free RPMI; 60 min, 37 °C): 0.713%
CC[C@H](C)[C@H](NC(=O)[C@H](Cc1ccccc1)NC(=O)[C@H](CCC(=O)O)NC(=O)[C@H](CCCNC(=N)N)NC(=O)[C@H](C)NC(=O)[C@H](C)NC(=O)[C@H](CCC(N)=O)NC(=O)[C@H](CCC(=O)O)NC(=O)[C@H](CCC(=O)O)NC(=O)[C@H](CC(C)C)NC(=O)[C@H](Cc1ccc(O)cc1)NC(=O)[C@H](CO)NC(=O)[C@H](CO)NC(=O)[C@@H](NC(=O)[C@H](CC(=O)O)NC(=O)[C@H](CO)NC(=O)[C@@H](NC(=O)[C@H](Cc1ccccc1)NC(=O)[C@@H](NC(=O)CNC(=O)[C@H](CCC(=O)O)NC(=O)[C@H](C)NC(=O)CCc1c[nH]cn1)[C@@H](C)O)[C@@H](C)O)C(C)C)C(=O)N[C@@H](C)C(=O)N[C@@H](Cc1c[nH]c2ccccc12)C(=O)N[C@@H](CC(C)C)C(=O)N[C@H](C(=O)N[C@@H](CCCNC(=N)N)C(=O)NCC(=O)N[C@@H](CCCNC(=N)N)C(=O)N[C@@H](CCCCNC(=O)COCCOCCNC(=O)COCCOCCNC(=O)CC[C@H](NC(=O)CCCCCCCCCCCCCCCCC(=O)O)C(=O)O)C(=O)NCC(=O)NCC(=O)N[C@@H](CO)C(=O)N[C@@H](CCCCNc1c(NCCCCCN(O)C(=O)CCC(=O)NCCCCCN(O)C(=O)CCC(=O)NCCCCCN(O)C(C)=O)c(=O)c1=O)C(=O)O)C(C)C [zirconium-89 labelled] — tissue uptake (rat, lung; iv, 3 nmol/kg, 168 h, ex vivo): 1.02 %ID/g

For quick reference, copied from above:
CCCCCCCCCC(=O)N[C@@H](Cc1c[nH]c2ccccc12)C(=O)N[C@H](CC(N)=O)C(=O)N[C@@H](CC(=O)O)C(=O)N[C@@H]1C(=O)NCC(=O)N[C@@H](CCCNC(=O)CCC(=O)N2Cc3ccccc3-c3c(nnn3CCC[C@H](NC(=O)CCCCC[N+]3=C(C=CC4=CC(=CC=C5N(C)c6ccccc6C5(C)C)CCC4)C(C)(C)c4ccccc43)C(=O)NCCCCNC(=O)OC(C)(C)C)-c3ccccc32)C(=O)N[C@@H](CC(=O)O)C(=O)N[C@H](C)C(=O)N[C@@H](CC(=O)O)C(=O)NCC(=O)N[C@H](CO)C(=O)N[C@@H]([C@H](C)CC(=O)O)C(=O)N[C@@H](CC(=O)c2ccccc2N)C(=O)O[C@@H]1C — fraction unbound (rapid equilibrium dialysis; human plasma; 1 µM, 2 h, 37 °C): 0.084
